Results gathered from unrelated publications.
Each line is one published result; not all experiments were run side by side. Numbers after ± are the reported error. Where no end group is shown, it is not given here.
chemosensory protein 1: chemosensory protein 1 (Chilo suppressalis, UniProt V9PY22)
Protein farnesyltransferase: Protein farnesyltransferase (Homo sapiens, UniProt P49354+P49356)
SLC10A1: Hepatic sodium/bile acid cotransporter (SLC10A1, Homo sapiens, UniProt Q14973)
ALB: Albumin (ALB, Homo sapiens, UniProt P02768)
T1: DNA:RNA hybrid triplex, strand 1 RNA, strand 2 DNA; chain A; chain T
B1: side-chain stapled; chain AACSFRINSLCG (also: sidechain bridge or staple (positions not given here))

Molecule | target | assay | system | setting | how to read | quantity | value
CC1=C(/C=C/C(C)=C/C=C/C(C)=C/C(=O)C(Cl)Cl)C(C)(C)CCC1 | Retinal dehydrogenase 2 (Gallus gallus, UniProt O93344) | time-dependent inactivation, inhibitor |  |  |  | KI | 128 nM
Cc1cc(NC(=O)c2cccc(NC(=O)/C=C/CN(C)C)c2)ccc1Nc1nccc(-c2cccnc2)n1 | Phosphatidylinositol 3-kinase catalytic subunit type 3 (PIK3C3, Homo sapiens, UniProt Q8NEB9) | ATP-biotin probe labeling, KiNativ | A-375 | 1 µM, 3 h, second of two sites |  | inhibition | 6.4%
NC[C@@H]1O[C@H](O[C@H]2[C@@H](O)[C@H](O[C@@H]3[C@@H](O)[C@H](N)C[C@H](N)[C@H]3O[C@H]3O[C@H](CN)[C@@H](O)[C@H](O)[C@H]3N)O[C@@H]2CO)[C@H](N)[C@@H](O)[C@@H]1O | T1, DNA:RNA hybrid triplex, strand 1 RNA, strand 2 DNA | UV melting |  | 20 µM, NaCl 18 mM, no triplex without ligand |  | melting temperature | 53.2 °C
CCOC(=O)CC1C(C(=O)OCC)=C(N)Oc2ccc(-c3cc(OC)cc(OC)c3)cc21 (stereo not drawn) | Sarcoplasmic/endoplasmic reticulum calcium ATPase 1 (ATP2A1, Oryctolagus cuniculus, UniProt P04191) | Ca2+-dependent ATPase activity | rabbit SR vesicles | 30 µM, unit not given, added: varied Ca2+ | baseline: control | Vmax | 0.4 ± 0.01
NC(=O)c1cccc2[nH]c(-c3cccc(C(=O)N4CCn5c(nnc5C(F)(F)F)C4)c3)nc12 | Poly [ADP-ribose] polymerase 1 (PARP1, Homo sapiens, UniProt P09874) | DNA binding, fluorescence polarization DNA competition |  | 100 µM, 200 s, added: unlabeled competitor DNA 2 µM |  | PARP1 bound to DNA | 3.9 ± 4.8%
CC/C=C\CCOC(C)=O | chemosensory protein 1 | binding, competitive ligand, fluorescence competitive binding |  | highest concentration tested, pH 7.4, protein 2 µM, added: 1-NPN 2 µM | baseline: no ligand | remaining 1-NPN fluorescence | 85.8 ± 2.19%
O=C(CCn1c2ccccc2c2ccncc21)N(c1ccc(F)cc1)c1ccc(F)cc1 | Proteasome subunit alpha type-2/Proteasome subunit alpha type-6, 20S proteasome (Homo sapiens, UniProt P25787+P60900) | proteolysis, activator, fluorogenic peptide | purified 20S proteasome | up to 30 µM, added: Suc-LLVY-AMC, Z-LLE-AMC, Boc-LRR-AMC | baseline: vehicle | maximum fold increase | 12
CTAL | Protein farnesyltransferase | enzyme activity, substrate, fluorimetric | peptide | 3 µM, 30 min, added: 9 µM farnesyl diphosphate | baseline: dansyl-GCVLS (set to 1.0) | relative fluorescence increase | 0
Nc1nc(N)c2nc(-c3ccccc3)c(N)nc2n1 | SLC10A1 | inhibitor | HEK293 expressing NTCP | 100 µM, 5 min, added: taurocholate 10 µM | baseline: no compound | taurocholate uptake | 85.7 ± 4.3%
CNIL | Protein farnesyltransferase | enzyme activity, substrate, fluorimetric | peptide | 3 µM, 30 min, added: 9 µM farnesyl diphosphate | baseline: dansyl-GCVLS (set to 1.0) | relative fluorescence increase | 0.22
Nc1ncnc2c1ncn2[C@@H]1O[C@H](COP(=O)(O)OP(=O)(O)OP(=O)(O)O)[C@@H](O)[C@H]1O | ALB | binding, native ESI-FT-ICR MS |  | 3 µM, saturation curve |  | bound fraction | 0.644 ± 0.0138
CCCCC/C=C\C/C=C\CCCCCCCC(=O)O | Chilo suppressalis CSP2 | binding, competitive fluorescence displacement |  | 30 µM, pH 7.4 |  | fluorescence intensity | 48 ± 1.39%
Clc1ccc(COC(Cn2ccnc2)c2ccc(Cl)cc2Cl)c(Cl)c1 (stereo not drawn) | SLC10A1 | inhibitor | NTCP-HEK293 | 50 µM | baseline: without compound | taurocholate uptake | 94.6 ± 2.6%
CCCCCCCCCCCC(=O)O | chemosensory protein 1 | binding, competitive ligand, fluorescence competitive binding |  | highest concentration tested, pH 7.4, protein 2 µM, added: 1-NPN 2 µM | baseline: no ligand | remaining 1-NPN fluorescence | 73.9 ± 2.72%
O=c1c(O)c(-c2ccc(O)cc2)oc2ccccc12 | UDP-glucuronosyltransferase 1A9 (UGT1A9, Homo sapiens, UniProt O60656) | substrate |  | pH 7.4, 37 °C |  | Vmax | 1800 pmol/mg/min
O=S(=O)([O-])c1cc(Nc2nc(Cl)nc(Cl)n2)c2c(O)c(N=Nc3ccccc3)c(S(=O)(=O)[O-])cc2c1.[Na+].[Na+] | ancestral DyP peroxidase wild type | peroxidase activity, substrate |  | pH 4.0, 25 °C, pH 4.5 for Mn2+ |  | Hill coefficient | ~3
CN(Cc1ccc(CN(C)c2ccc(F)cc2)cc1)c1ccc(F)cc1 | C-X-C chemokine receptor type 4 (CXCR4, Homo sapiens, UniProt P61073) | binding, competition binding | MDA-MB-231 | semi-quantitative screen, added: biotinylated TN14003 |  | lowest effective concentration | 100 nM

Molecule | target | assay | system | setting | how to read | quantity | value
CRLL | Protein farnesyltransferase | enzyme activity, substrate, fluorimetric | peptide | 3 µM, 30 min, added: 9 µM farnesyl diphosphate | baseline: dansyl-GCVLS (set to 1.0) | relative fluorescence increase | < 0.05
C[C@H](NC(=O)[C@H](C)NC(=O)[C@H](CCCNC(=N)N)N(C)C(=O)[C@@H]1CCCN1C(=O)[C@H](CCCNC(=N)N)NC(=O)CNC(=O)c1ccc2c(c1)C1(OC2=O)c2ccc(O)cc2Oc2cc(O)ccc21)C(=O)N[C@H](C(=O)N[C@@H](Cc1ccccc1)C(=O)N[C@@H](C)C(=O)N[C@@H](CCC(=O)O)C(=O)NCC(N)=O)[C@@H](C)O | RAC-alpha serine/threonine-protein kinase (AKT1, Homo sapiens, UniProt P31749) | substrate, CE-LIF |  | 25 µM, pH 7.0, 30 °C, enzyme 6 nM, added: ATP 1 mM |  | time to half phosphorylation | 1010 min
CNC(=O)c1cc(Cl)cc(C)c1NC(=O)c1cc(Br)nn1-c1ncccc1Cl | ryanodine receptor (Daphnia magna, UniProt A0A164M377) | [3H]ryanodine binding, activator | microsomes | 16 h, 25 °C, 200% of control binding |  | EC2X | 0.48 µM
CCC/C=C\C=O | Chilo suppressalis CSP2 | binding, competitive ligand, fluorescence competitive binding |  | highest concentration tested, pH 7.4, protein 2 µM, added: 1-NPN 2 µM | baseline: no ligand | remaining 1-NPN fluorescence | 49.1 ± 1.64%
CS(=O)(=O)c1ccc([C@@H](CC2CCCC2)C(=O)Nc2nccs2)cc1 | Hexokinase-4 (Mus musculus, UniProt P52792) | activator |  | 3 µM, pH 7.4, 37 °C, with or without BAD SAHB, added: glucose 0 to 50 mM, ATP 5 mM |  | Hill coefficient | 1.71 ± 0.06
CCCCCCCC(=O)OC[C@H](COP(=O)(O)O[C@@H]1[C@H](O)[C@H](O)[C@@H](OP(=O)(O)O)[C@H](OP(=O)(O)O)[C@H]1O)OC(=O)CCCCCCC | Potassium voltage-gated channel subfamily KQT member 3 (KCNQ3, Homo sapiens, UniProt O43525, A315T) | activator, inside-out patch | HM1-CHO cells | 1 to 100 µM |  | open probability hysteresis | no effect
COc1cc2c(NC3CCN(CCCC(=O)NCCCCCCCCCC(=O)N[C@H](C(=O)N4C[C@H](O)C[C@H]4C(=O)NCc4ccc(-c5scnc5C)cc4)C(C)(C)C)CC3)nc(N3CCC(F)(F)CC3)nc2cc1OCCCN1CCCC1 | Histone-lysine N-methyltransferase EHMT2 (EHMT2, Homo sapiens, UniProt Q96KQ7) | degrader, western blot |  | 0.3 µM, 24 h | baseline: DMSO | degradation | 67 ± 22%
CCCCC#Cc1cn([C@@H]2O[C@H](COP(=O)(O)OP(=O)(O)O)[C@@H](O)[C@H]2O)c(=O)[nH]c1=O | Uracil nucleotide/cysteinyl leukotriene receptor, short isoform (GPR17, Homo sapiens, UniProt Q13304, R283I) | frontal affinity chromatography-MS | mutated receptor IAM column | concentration not given | baseline: wild type column | breakthrough time change | -2.4%
CC[C@H](C)[C@H](NC(=O)[C@H](CC(C)C)NC(=O)[C@H](CC(C)C)NC(=O)CNC(=O)[C@H](Cc1ccc(O)cc1)NC(=O)[C@H](CCCNC(=N)N)NC(=O)[C@H](CO)NC(C)=O)C(=O)N[C@@H](CCCCN)C(=O)N[C@@H](C)C(=O)N[C@@H](Cc1ccccc1)C(=O)N[C@@H](CO)C(=O)N[C@@H](CCSC)C(=O)N[C@H](C(=O)N[C@@H](C)C(=O)N[C@@H](C)C(=O)N[C@@H](CCC(=O)O)C(=O)N[C@H](C(=O)N[C@@H](C)C(=O)N[C@@H](CCCNC(=N)N)C(=O)N[C@@H](CCCNC(=N)N)C(=O)N[C@H](C(=O)N[C@@H](CCCNC(=N)N)C(=O)N[C@@H](CCC(=O)O)C(=O)N[C@@H](Cc1ccccc1)C(=O)N[C@@H](CCCNC(=N)N)C(N)=O)[C@@H](C)O)[C@@H](C)O)[C@@H](C)O | calmodulin 1-148 (mammalian) | calcium binding at sites I and II, equilibrium calcium titration |  | 2 eq | baseline: N-domain over C-domain sites | ΔΔG of calcium binding | 1.01 ± 0.37 kcal/mol
COc1cnc(NS(=O)(=O)c2ccc(NC(=O)/C=C/c3ccc(O)cc3)cc2)nc1 | ALB | tryptophan fluorescence quenching |  | pH 7.4, 298 K, ALB 1 µM, site I |  | Ka | 48000 L/mol
CCC(C)n1ncn(-c2ccc(N3CCN(c4ccc(OCC5COC(Cn6cncn6)(c6ccc(Cl)cc6Cl)O5)cc4)CC3)cc2)c1=O (stereo not drawn) | SLC10A1 | inhibitor | NTCP-HEK293 | 25 µM | baseline: without compound | taurocholate uptake | 81.8 ± 5.6%
CCCc1cc(-c2cncc(OC[C@@H](N)Cc3c[nH]c4ccccc34)c2)cc2c(C)n[nH]c12 | RAC-alpha serine/threonine-protein kinase (AKT1, Homo sapiens, UniProt P31749, M227G) | enzyme activity, immunoprecipitation kinase | HEK293 | 2.5 µM, 30 min, hyperphosphorylated analogue-sensitive Akt1 | baseline: untreated | kinase activity | ~10 fold
CC[C@H](C)[C@H](NC(=O)[C@H](Cc1c[nH]cn1)NC(=O)[C@H](CC(=O)O)NC(=O)[C@H](C)NC(=O)[C@H](CC(C)C)NC(=O)[C@@H](NC(=O)[C@@H](NC(=O)[C@H](CC(C)C)NC(=O)[C@H](CCCNC(=N)N)NC(=O)[C@H](C)NC(=O)[C@@H](NC(=O)[C@H](CCCNC(=N)N)NC(=O)[C@@H]1CCCN1C(=O)[C@@H](NC(=O)[C@H](CCC(N)=O)NC(=O)CN)C(C)C)[C@@H](C)O)[C@@H](C)CC)[C@@H](C)O)C(=O)N[C@@H](CS)C(=O)N[C@@H](CCC(N)=O)C(=O)N[C@H](C(=O)N[C@H](C(=O)N[C@H](C(=O)N[C@@H](CCC(N)=O)C(=O)N[C@@H](CC(=O)O)C(=O)N[C@@H](Cc1ccccc1)C(=O)N[C@@H](C)C(=O)N[C@@H](CCCNC(=N)N)C(=O)O)[C@@H](C)O)[C@@H](C)CC)[C@@H](C)CC | Nuclear receptor subfamily 1 group D member 1 (NR1D1, Homo sapiens, UniProt P20393) | NCoR peptide binding, competitor, TR-FRET |  | 1 h, added: labelled NCoR 2040-2065 peptide | baseline: mutant over wild-type peptide | IC50 fold change | 2.5
CCCCC(C(=O)COc1c(F)c(F)cc(F)c1F)n1cc(C2(N)CCN(C(N)=O)CC2)nn1 (stereo not drawn) | DPAP1 (Plasmodium falciparum, UniProt Q8IIJ9) | inhibitor | parasite lysate | added: (Pro-Arg)2-rhodamine substrate |  | second-order inactivation rate constant | < 20 M⁻¹ s⁻¹
B1 | Dipeptidyl peptidase 9 (DPP9, Homo sapiens, UniProt Q86TI2) | enzyme activity |  | 200 µM, 37 °C | baseline: FAPα over DPP9 | selectivity ratio | 13 fold
CNc1ncnc2c1ncn2[C@@H]1O[C@H](COP(=O)(O)OP(=O)(O)OP(=O)(O)O)[C@@H](O)[C@H]1O.N.N.N.N | Uracil nucleotide/cysteinyl leukotriene receptor (GPR17, Homo sapiens, UniProt Q13304) | frontal affinity chromatography-MS | immobilized on IAM column | 1 µM, compound mixture |  | breakthrough time | 7.53 min

For quick reference, copied from above:
Molecule | target | assay | system | setting | how to read | quantity | value
CTAL | Protein farnesyltransferase | enzyme activity, substrate, fluorimetric | peptide | 3 µM, 30 min, added: 9 µM farnesyl diphosphate | baseline: dansyl-GCVLS (set to 1.0) | relative fluorescence increase | 0
Cc1cc(NC(=O)c2cccc(NC(=O)/C=C/CN(C)C)c2)ccc1Nc1nccc(-c2cccnc2)n1 | Phosphatidylinositol 3-kinase catalytic subunit type 3 (PIK3C3, Homo sapiens, UniProt Q8NEB9) | ATP-biotin probe labeling, KiNativ | A-375 | 1 µM, 3 h, second of two sites |  | inhibition | 6.4%
CN(Cc1ccc(CN(C)c2ccc(F)cc2)cc1)c1ccc(F)cc1 | C-X-C chemokine receptor type 4 (CXCR4, Homo sapiens, UniProt P61073) | binding, competition binding | MDA-MB-231 | semi-quantitative screen, added: biotinylated TN14003 |  | lowest effective concentration | 100 nM
O=S(=O)([O-])c1cc(Nc2nc(Cl)nc(Cl)n2)c2c(O)c(N=Nc3ccccc3)c(S(=O)(=O)[O-])cc2c1.[Na+].[Na+] | ancestral DyP peroxidase wild type | peroxidase activity, substrate |  | pH 4.0, 25 °C, pH 4.5 for Mn2+ |  | Hill coefficient | ~3
